Published values of several laboratories.
Each line is one published result; not all experiments were run side by side.
Target: ALK tyrosine kinase receptor (ALK, Homo sapiens, UniProt Q9UM73)
UniProt Q9UM73, sequence (whole entry, looked up): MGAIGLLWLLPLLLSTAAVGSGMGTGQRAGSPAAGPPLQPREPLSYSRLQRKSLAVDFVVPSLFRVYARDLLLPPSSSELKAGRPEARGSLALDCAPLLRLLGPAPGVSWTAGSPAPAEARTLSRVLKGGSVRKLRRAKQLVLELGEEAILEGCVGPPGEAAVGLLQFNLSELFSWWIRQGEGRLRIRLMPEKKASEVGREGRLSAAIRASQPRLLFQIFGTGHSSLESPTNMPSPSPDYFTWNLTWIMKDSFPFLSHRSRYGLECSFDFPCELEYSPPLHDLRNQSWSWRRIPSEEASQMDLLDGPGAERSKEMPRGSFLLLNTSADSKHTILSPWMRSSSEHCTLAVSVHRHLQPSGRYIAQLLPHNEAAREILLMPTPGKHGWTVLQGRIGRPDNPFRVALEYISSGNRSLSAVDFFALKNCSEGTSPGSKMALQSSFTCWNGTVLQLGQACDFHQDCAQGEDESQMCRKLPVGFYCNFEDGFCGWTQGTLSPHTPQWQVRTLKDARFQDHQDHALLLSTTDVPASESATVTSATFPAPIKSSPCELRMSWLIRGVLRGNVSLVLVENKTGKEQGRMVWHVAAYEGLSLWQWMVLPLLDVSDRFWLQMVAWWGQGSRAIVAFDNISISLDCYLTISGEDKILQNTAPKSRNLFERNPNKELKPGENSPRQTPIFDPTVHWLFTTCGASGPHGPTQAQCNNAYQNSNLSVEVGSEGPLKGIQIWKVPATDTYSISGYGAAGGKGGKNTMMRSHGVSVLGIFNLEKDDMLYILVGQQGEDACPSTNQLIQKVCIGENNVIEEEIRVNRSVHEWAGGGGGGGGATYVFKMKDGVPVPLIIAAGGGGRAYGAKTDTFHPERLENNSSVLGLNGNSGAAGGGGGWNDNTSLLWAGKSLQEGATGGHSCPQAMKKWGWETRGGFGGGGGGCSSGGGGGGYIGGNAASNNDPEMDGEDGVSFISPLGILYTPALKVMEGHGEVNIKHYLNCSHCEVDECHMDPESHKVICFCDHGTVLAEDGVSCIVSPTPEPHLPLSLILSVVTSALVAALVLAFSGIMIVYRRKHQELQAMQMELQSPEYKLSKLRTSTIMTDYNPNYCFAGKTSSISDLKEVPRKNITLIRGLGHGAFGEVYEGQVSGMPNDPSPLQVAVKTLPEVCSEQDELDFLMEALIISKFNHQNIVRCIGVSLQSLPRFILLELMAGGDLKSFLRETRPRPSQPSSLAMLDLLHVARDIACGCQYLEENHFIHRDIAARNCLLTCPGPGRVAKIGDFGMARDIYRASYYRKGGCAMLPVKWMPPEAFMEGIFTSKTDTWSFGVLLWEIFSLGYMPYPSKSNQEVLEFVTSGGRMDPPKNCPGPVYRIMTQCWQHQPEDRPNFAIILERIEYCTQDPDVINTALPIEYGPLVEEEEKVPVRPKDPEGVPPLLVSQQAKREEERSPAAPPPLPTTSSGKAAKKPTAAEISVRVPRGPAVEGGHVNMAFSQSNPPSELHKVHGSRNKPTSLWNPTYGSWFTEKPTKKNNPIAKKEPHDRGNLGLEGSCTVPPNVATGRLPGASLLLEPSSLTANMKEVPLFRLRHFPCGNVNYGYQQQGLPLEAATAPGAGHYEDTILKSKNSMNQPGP

Structure (SMILES) | test | conditions | scale | quantity | value
COc1ccc(NC(=O)Nc2ccc3c(c2)C(=O)N(C(C)CO)CC(C)C(CN(C)Cc2ccc4c(c2)OCO4)O3)cc1 (stereo not drawn) | kinase activity, KinaseProfiler | 0.03 µM, species human | reference: control | remaining activity | 91%
COc1cc(Nc2nccc(-c3cnn4nc(OC)ccc34)n2)cc(C(F)(F)F)c1 | binding, competition with immobilised ligand | 1 µM | – | remaining binding | 87%
Cc1cccc(O[C@H]2CCC[C@@H](C(C)CNCc3ccncc3)C2)c1 (relative stereo) | cell-free assay | 1 µM | – | inhibition | 1%
O=C(O)CCC(=O)c1cccc(NS(=O)(=O)c2c[nH]c3ncccc23)c1 | kinase activity, radiometric | 10 µM | – | remaining activity | 98%
C=CC(=O)Nc1cccc(-c2cnc3[nH]cc(C(=O)NC(C)(C)C)c3n2)c1 | enzyme activity, inhibitor | 0.1 µM | – | inhibition | 11%
CN1CCN(Cc2ccc(-c3ccc(CO[C@H]4CCC[C@@H]4NC(=O)c4cc(-c5cnn(C)c5)cnc4N)cc3)cc2)CC1 | enzyme activity, inhibitor | 0.1 µM | – | inhibition | 0%
NC(=O)[C@@H](O)C[C@H]1CCc2sc3ncnc(O[C@H]4CC[C@H](N5CCOCC5)CC4)c3c21 | enzyme activity, inhibitor | 10 µM | – | inhibition | 44%
C=C1CCCCCCCCCC(CO)C1=O (stereo not drawn) | cell-free assay | 10 µM | – | remaining signal | 100%
CCn1cc(C(=O)O)c(=O)c2c(N)c(F)c(NC3CCCCC3)cc21 | kinase activity | 0.1 µM, added: ATP at Km | – | inhibition | 1.7%
O=C(Cc1ccc(OCc2ccccc2)cc1)NC1(C(=O)O)CCN(C(=O)c2ccc(-c3cccc(Cl)c3)cc2)CC1 | enzyme activity, inhibitor | 10 µM | – | activity vs control | 141%
O=C(Nc1ccc(Oc2ncnc3[nH]cc(-c4ccccc4)c23)c(F)c1)c1c2n(n(-c3cc(F)ccc3F)c1=O)CCCC2 | enzyme activity, inhibitor | 0.5 µM | – | inhibition | 23%
Nc1ncc(-c2cc(-c3cnn(CC(F)(F)F)c3)ncc2F)nc1C(=O)NC1CNCC(F)C1 (stereo not drawn) | enzyme activity | 1 µM | reference: DMSO control | remaining activity | 86.7%

Some of these lines once more:
Structure (SMILES) | test | conditions | scale | quantity | value
O=C(Nc1ccc(Oc2ncnc3[nH]cc(-c4ccccc4)c23)c(F)c1)c1c2n(n(-c3cc(F)ccc3F)c1=O)CCCC2 | enzyme activity, inhibitor | 0.5 µM | – | inhibition | 23%
Nc1ncc(-c2cc(-c3cnn(CC(F)(F)F)c3)ncc2F)nc1C(=O)NC1CNCC(F)C1 (stereo not drawn) | enzyme activity | 1 µM | reference: DMSO control | remaining activity | 86.7%
